Published values gathered from unrelated publications.
Protocols differ between the studies behind these lines.
Technique: steady-state kinetics
B1: enzyme R85Q (Methanopyrus kandleri, UniProt Q8TWG5); chain MSKVAVIGATGRVGSTAAARLALLDCVNEVTLIARPKSVDKLRGLRRDILDSLAAAQKDAEITIGCERDDYVDADVIVMTAGIPQKPGQTRLDLTKDNAAIIKKYLEGVAEENPEAIVLVVTNPVDVLTYVALKVSGLPKNRVIGLGTHLDSMRFKVLIAKHFNVHMSEVHTRIIGEHGDTMVPVISSTSVGGIPVTRMPGWEDFDVEEAVREVKEAGQRIIETWGGSQFGPAQAITNLVRTILQDERRVLTVSAYLDGEIDGIRDVCIGVPARLGREGVLEIVPIELEEDEMRAFRRSVKVVKEATREAMEAISER
B2: ermE (Saccharopolyspora erythraea, UniProt P07287); chain MSSSDEQPRPRRRNQDRQHPNQNRPVLGRTERDRNRRQFGQNFLRDRKTIARIAETAELRPDLPVLEAGPGEGLLTRELADRARQVTSYEIDPRLAKSLREKLSGHPNIEVVNADFLTAEPPPEPFAFVGAIPYGITSAIVDWCLEAPTIETATMVTQLEFARKRTGDYGRWSRLTVMTWPLFEWEFVEKVDRRLFKPVPKVDSAIMRLRRRAEPLLEGAALERYESMVELCFTGVGGNIQASLLRKYPRRRVEAALDHAGVGGGAVVAYVRPEQWLRLFERLDQKNEPRGGQPQRGRR
B3: enzyme (Sorghum bicolor, UniProt C5XVQ1); chain MDGGDGGKEDGNNKQRLEWATMNLERGVVVGAGEKKGGNASRKPPIGIVRLFLACMVSGGIQYGWALQLSLLSPYSQTLGISHSYVSLTWICGPIAGFVVQPIVGYYSDRCTSKMGRRRPFILAGCIIICLSVMMIGFSADIGRRLGDTKEHCSTFTGSRWYAAAVYIVGFWFLDFANNTVQGPARAMMADLAAGHHGPNVGQAIFSLWMALGSVLGYLAGANAKWHEWLPWLKTAACCDACANLKGAFLTAVILIIVTMSVTLWLAGEELLDKANVDDASGGACSAFVDLFKSLKNLPPAMFSVLAVTAVTWLSWFPFIQYNTDWMGREIFHGEPQGAGGKADLYDAGVREGAVGLLFCSVLLGVTSFLIPKLCRKLTSRVVWSISNLMVFVLMTAMVALGIVSMKGYRPSLAASLSAGPDHRFKSGALAIFALIGIPQAVLFSVPWAVVSEVAAEEGGGQGLTIGVLNIAIVLPQLVIALSAGPIDGAFNKGNTPALGIGGVFALICAVLALVLLPKTRGVSNATVMAGGGH
B4: enzyme (Listeria monocytogenes, UniProt A0A0H3GFM5); chain MAILTEDELRKAYLHTDLKTTKKLDIKKGTIITPSAKSFLSEKKIDLHYNDEIAETKVVVEPVKTETTRAKFQTIYGGALDEKPEHMTHLRGNLLVFKDHPQIAFRGKLDTLEAEILETQCSVAAEFKDLAEDLQEILTFVRNIVRAEVLNEQIESVNLLGMDEKELRERSHNPKKYYQMTHFMPDYTMGNAVIRLNKIRTMVRETELAAFLAFKEADYSIKRPDIIQALNRLSSLFWILMFRVRTNEYKK
B5: patZ (Escherichia coli, UniProt P76594); chain MSQRGLEALLRPKSIAVIGASMKPNRAGYLMMRNLLAGGFNGPVLPVTPAWKAVLGVLAWPDIASLPFTPDLAVLCTNASRNLALLEELGEKGCKTCIILSAPASQHEDLRACALRHNMRLLGPNSLGLLAPWQGLNASFSPVPIKRGKLAFISQSAAVSNTILDWAQQRKMGFSYFIALGDSLDIDVDELLDYLARDSKTSAILLYLEQLSDARRFVSAARSASRNKPILVIKSGRSPAAQRLLNTTAGMDPAWDAAIQRAGLLRVQDTHELFSAVETLSHMRPLRGDRLMIISNGAAPAALALDALWSRNGKLATLSEETCQKLRDALPEHVAISNPLDLRDDASSEHYIKTLDILLHSQDFDALMVIHSPSAAAPATESAQVLIEAVKHHPRSKYVSLLTNWCGEHSSQEARRLFSEAGLPTYRTPEGTITAFMHMVEYRRNQKQLRETPALPSNLTSNTAEAHLLLQQAIAEGATSLDTHEVQPILQAYGMNTLPTWIASDSTEAVHIAEQIGYPVALKLRSPDIPHKSEVQGVMLYLRTANEVQQAANAIFDRVKMAWPQARVHGLLVQSMANRAGAQELRVVVEHDPVFGPLIMLGEGGVEWRPEDQAVVALPPLNMNLARYLVIQGIKSKKIRARSALRPLDVAGLSQLLVQVSNLIVDCPEIQRLDIHPLLASGSEFTALDVTLDISPFEGDNESRLAVRPYPHQLEEWVELKNGERCLFRPILPEDEPQLQQFISRVTKEDLYYRYFSEINEFTHEDLANMTQIDYDREMAFVAVRRIDQTEEILGVTRAISDPDNIDAEFAVLVRSDLKGLGLGRRLMEKLITYTRDHGLQRLNGITMPNNRGMVALARKLGFNVDIQLEEGIVGLTLNLAQREES
B6: proB (Escherichia coli, UniProt P0A7B5); chain MSDSQTLVVKLGTSVLTGGSRRLNRAHIVELVRQCAQLHAAGHRIVIVTSGAIAAGREHLGYPELPATIASKQLLAAVGQSRLIQLWEQLFSIYGIHVGQMLLTRADMEDRERFLNARDTLRALLDNNIVPVINENDAVATAEIKVGDNDNLSALAAILAGADKLLLLTDQKGLYTADPRSNPQAELIKDVYGIDDALRAIAGDSVSGLGTGGMSTKLQAADVACRAGIDTIIAAGSKPGVIGDVMEGISVGTLFHAQATPLENRKRWIFGAPPAGEITVDEGATAAILERGSSLLPKGIKSVTGNFSRGEVIRICNLEGRDIAHGVSRYNSDALRRIAGHHSQEIDAILGYEYGPVAVHRDDMITR
B7: enzyme (Lactiplantibacillus plantarum, UniProt Q06115); chain CTAITYQSYNNYFGRNFDYEISYNEMVTITPRKYPLVFRKVENLDHHYAIIGITADVESYPLYYDAMNEKGLCIAGLNFAGYADYKKYDADKVNITPFELIPWLLGQFSSVREVKKNIQKLNLVNINFSEQLPLSPLHWLVADKQESIVIESVKEGLKIYDNPVGVLTNNPNFDYQLFNLNNYRALSNSTPQNSFSEKVDLDSYSRGMGGLGLPGDLSSMSRFVRAAFTKLNSLSMQTESGSVSQFFHILGSVEQQKGLCEVTDGKYEYTIYSSCCDMDKGVYYYRTYDNSQINSVSLNHEHLDTTELISYPLRSEAQYYAVN
Sequence of UniProt P18105 (whole entry, looked up): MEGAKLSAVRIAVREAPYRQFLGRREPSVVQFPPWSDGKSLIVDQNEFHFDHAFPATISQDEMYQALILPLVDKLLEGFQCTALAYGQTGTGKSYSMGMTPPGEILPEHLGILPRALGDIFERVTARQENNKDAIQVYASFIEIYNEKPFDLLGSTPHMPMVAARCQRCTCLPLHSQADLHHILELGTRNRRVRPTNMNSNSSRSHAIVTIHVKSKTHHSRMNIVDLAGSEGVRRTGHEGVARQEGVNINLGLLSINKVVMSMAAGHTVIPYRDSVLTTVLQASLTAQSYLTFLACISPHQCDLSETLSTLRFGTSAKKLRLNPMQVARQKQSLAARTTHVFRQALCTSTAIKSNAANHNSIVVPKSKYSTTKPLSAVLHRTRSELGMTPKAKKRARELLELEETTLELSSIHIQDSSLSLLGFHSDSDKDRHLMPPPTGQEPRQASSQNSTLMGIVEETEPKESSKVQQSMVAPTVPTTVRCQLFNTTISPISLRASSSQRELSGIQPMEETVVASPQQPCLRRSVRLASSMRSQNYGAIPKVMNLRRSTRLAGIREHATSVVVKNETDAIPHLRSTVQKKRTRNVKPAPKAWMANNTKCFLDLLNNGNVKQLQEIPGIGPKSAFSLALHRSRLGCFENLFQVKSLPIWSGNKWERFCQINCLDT

Molecule = ptcA (Enterococcus faecalis, UniProt Q837U7); substrate = NCCCCN; setting = pH 6.9, 22 °C, with: carbamoyl phosphate 1.0 mM; K0.5 = 136 µM
Molecule = B1 (enzyme R85Q); substrate = CC(=O)C(=O)O; setting = pH 6, 60 °C, with: 0.3 mM NADH; K0.5 = 14000 µM
Molecule = B2 (ermE); substrate = C[S+](CC[C@H](N)C(=O)O)C[C@H]1O[C@@H](n2cnc3c(N)ncnc32)[C@H](O)[C@@H]1O; setting = pH 7.5; K0.5 = 4.2 µM
Molecule = B3 (enzyme); substrate = OC[C@H]1O[C@@](CO)(O[C@H]2O[C@H](CO)[C@@H](O)[C@H](O)[C@H]2O)[C@@H](O)[C@@H]1O; setting = pH 5.6, not purified; K0.5 = 2300 µM
Molecule = B4 (enzyme); substrate = Nc1ncnc2c1ncn2[C@H]1C[C@H](O)[C@@H](COP(=O)(O)OP(=O)(O)OP(=O)(O)O)O1; setting = pH 7.5, 37 °C, KCl 500 mM, kcat per active site, positive cooperativity, with: Ti(III) citrate; K0.5 = 3.8 µM
Molecule = B5 (patZ); substrate = CC(=O)SCCNC(=O)CCNC(=O)[C@H](O)C(C)(C)COP(=O)(O)OP(=O)(O)OC[C@H]1O[C@@H](n2cnc3c(N)ncnc32)[C@H](O)[C@@H]1OP(=O)(O)O; setting = pH 8, 37 °C; K0.5 = 4.2 µM
Molecule = enzyme (Drosophila melanogaster, UniProt P18105); substrate = Nc1ncnc2c1ncn2[C@@H]1O[C@H](COP(=O)(O)OP(=O)(O)OP(=O)(O)O)[C@@H](O)[C@H]1O; setting = pH 6.8, 25 °C, with: microtubules, Taxol, Mg2+; K0.5 = 3.8 µM
Molecule = B6 (proB); substrate = N[C@@H](CCC(=O)O)C(=O)O; setting = pH 7, 30 °C, Hill coefficient, apparent, with: 10 mM ATP; K0.5 = 26000 µM
Molecule = B7 (enzyme); substrate = C[C@H](CCC(=O)N[C@@H](Cc1ccccc1)C(=O)O)[C@H]1CC[C@H]2[C@@H]3[C@H](O)C[C@@H]4C[C@H](O)CC[C@]4(C)[C@H]3C[C@H](O)[C@]12C; setting = pH 6.2, 37 °C; K0.5 = 1160 µM
